Experimental data of several laboratories.
Protocols differ between the studies behind these lines. Numbers after ± are the reported error. Converted amounts (≈) assume the structure as drawn.
rep nsp14: Replicase polyprotein 1ab, nsp14 (rep, Severe acute respiratory syndrome coronavirus 2, UniProt P0DTD1)
T1: DNA aptamer; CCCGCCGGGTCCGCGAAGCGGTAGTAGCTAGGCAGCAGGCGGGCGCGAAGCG
Chain of UniProt P11388 (whole entry, looked up): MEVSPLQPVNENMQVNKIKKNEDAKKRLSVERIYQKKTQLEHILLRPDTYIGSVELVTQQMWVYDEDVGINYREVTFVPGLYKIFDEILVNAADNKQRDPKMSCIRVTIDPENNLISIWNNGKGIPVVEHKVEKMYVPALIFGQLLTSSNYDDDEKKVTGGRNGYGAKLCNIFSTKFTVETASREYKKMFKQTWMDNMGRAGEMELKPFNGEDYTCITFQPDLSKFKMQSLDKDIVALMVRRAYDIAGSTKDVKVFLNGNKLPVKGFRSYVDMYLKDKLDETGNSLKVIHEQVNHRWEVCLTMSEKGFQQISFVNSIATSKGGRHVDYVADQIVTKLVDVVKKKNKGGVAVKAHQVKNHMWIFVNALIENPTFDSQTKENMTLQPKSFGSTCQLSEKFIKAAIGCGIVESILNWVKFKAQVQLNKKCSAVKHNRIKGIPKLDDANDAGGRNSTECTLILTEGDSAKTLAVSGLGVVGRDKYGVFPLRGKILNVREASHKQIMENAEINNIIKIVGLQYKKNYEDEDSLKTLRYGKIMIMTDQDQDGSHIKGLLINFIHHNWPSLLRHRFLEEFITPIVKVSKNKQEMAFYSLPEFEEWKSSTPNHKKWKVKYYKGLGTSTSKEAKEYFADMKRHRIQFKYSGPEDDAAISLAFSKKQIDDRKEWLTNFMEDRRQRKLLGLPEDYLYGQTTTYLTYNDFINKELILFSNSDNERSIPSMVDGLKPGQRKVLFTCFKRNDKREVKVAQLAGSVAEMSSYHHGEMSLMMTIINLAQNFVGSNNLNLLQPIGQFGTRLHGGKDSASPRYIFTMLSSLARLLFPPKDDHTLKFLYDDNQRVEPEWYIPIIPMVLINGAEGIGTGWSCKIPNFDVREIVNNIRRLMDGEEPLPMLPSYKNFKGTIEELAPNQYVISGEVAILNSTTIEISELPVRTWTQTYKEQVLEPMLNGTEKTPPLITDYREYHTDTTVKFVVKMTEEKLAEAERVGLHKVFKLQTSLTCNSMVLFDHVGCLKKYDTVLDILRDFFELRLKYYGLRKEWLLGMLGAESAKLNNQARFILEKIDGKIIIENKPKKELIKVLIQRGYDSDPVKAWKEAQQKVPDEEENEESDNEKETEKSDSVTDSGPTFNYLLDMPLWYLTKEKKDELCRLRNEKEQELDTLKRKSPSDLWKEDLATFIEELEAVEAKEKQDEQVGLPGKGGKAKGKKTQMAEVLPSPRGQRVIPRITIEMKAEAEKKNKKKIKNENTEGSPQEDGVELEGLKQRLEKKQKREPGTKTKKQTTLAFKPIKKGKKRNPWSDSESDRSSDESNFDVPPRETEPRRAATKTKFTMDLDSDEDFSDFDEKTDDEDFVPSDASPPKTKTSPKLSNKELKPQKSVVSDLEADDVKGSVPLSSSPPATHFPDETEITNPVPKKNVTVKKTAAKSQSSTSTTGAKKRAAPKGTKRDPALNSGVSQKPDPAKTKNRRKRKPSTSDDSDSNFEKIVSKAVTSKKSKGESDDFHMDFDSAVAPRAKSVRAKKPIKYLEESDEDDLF

| Compound | tested on | assay | system | conditions | scale | endpoint | result |
| --- | --- | --- | --- | --- | --- | --- | --- |
| Fc1ccccc1Cc1nc(-c2nc(C(F)(F)F)n[nH]2)cn2ccnc12 |  |  | healthy volunteers | 3 mg, single ascending dose | baseline: placebo | choice reaction time | -26.8 ms |
| Clc1nc(NCc2ccco2)c2[nH]cnc2n1 | iPSC-derived cardiomyocytes, Fabry disease | RNA-seq |  | 30 µM, 72 h |  | GLA poison exon skipping ΔPSI | 26.8% |
| COC(=O)Nc1c(N)nc(-c2nn(Cc3ccccc3F)c3ncc(F)cc23)nc1N |  |  | healthy white men | dose not given, day 15, 360 h, LS mean difference, added: sildenafil 100 mg | baseline: placebo | seated SBP maximum decrease | -5.36 mmHg |
| COc1cc([C@@H]2c3cc4c(cc3[C@@H](O[C@@H]3O[C@@H]5CO[C@@H](C)O[C@H]5[C@H](O)[C@H]3O)[C@H]3COC(=O)[C@H]23)OCO4)cc(OC)c1O | DNA topoisomerase 2-alpha (TOP2A, Homo sapiens, UniProt P11388) | DNA cleavage |  | 200 µM |  | mean linear DNA | 35.6% |
| COc1ccccc1CNC(=O)c1cc(S(=O)(=O)N2CCc3cc(Cl)ccc3C2)c(C)n1C | rep nsp14 | inhibitor |  |  |  | IC50 | > 6250 nM |
| OC[C@H]1O[C@@H](O[C@@H]2[C@@H](O)[C@H](O[C@@H]3[C@@H](O)[C@H](O[C@H]4[C@H](O)[C@@H](CO)OC(O)[C@@H]4O)O[C@H](CO)[C@H]3O)O[C@H](CO)[C@H]2O)[C@H](O)[C@@H](O)[C@@H]1O (stereo partly shown) | Bacteroides thetaiotaomicron | binding, ITC |  | pH 7.0, 25 °C, distal domain |  | ΔG | -25 kcal/mol |
| C=C(C)[C@]12C[C@@H](C)[C@@]34O[C@](Cc5ccccc5)(O[C@@H]1[C@@H]3C=C(COC(=O)Cc1ccc(O)c(OC)c1)C[C@]1(O)C(=O)C(C)=C[C@@H]41)O2 | HEK293T ATF4-FLuc reporter | ATF4 reporter gene, activator, luciferase reporter |  |  |  | EC50 | 224 nM |
| N#CCC1CCN(c2nc(Nc3ccc(N4CCC(O)CC4)cc3)c3c(=O)[nH]ncc3n2)CC1 |  | vs placebo, Olink multiplex | human, serum | 40 mg, day 15, unit not given | baseline: placebo | IL-18 level difference | -1.42 |
| C=C1[C@@H](O)[C@@H]2O[C@]3(CC[C@H](/C=C/[C@@H](C)[C@@H]4CC(C)=C[C@@]5(O[C@H](C[C@@](C)(O)C(=O)O)CC[C@H]5O)O4)O3)CC[C@H]2O[C@@H]1[C@@H](O)C[C@H](C)[C@H]1O[C@@]2(CCCCO2)CC[C@H]1C | T1, DNA aptamer | microscale thermophoresis |  | pH 7.5, 25 °C, NaCl 150 mM |  | Kd | 432 nM |
| Cc1c(S(=O)(=O)N2CCn3nccc3C2)cc(C(=O)NCc2c(F)ccc3cnn(C)c23)n1C | rep nsp14 | inhibitor |  |  |  | IC50 | 0.4 nM |
| C[C@H]1O[C@@H](O[C@H]2[C@@H](O)C[C@H](O[C@H]3[C@@H](O)C[C@H](O[C@H]4CC[C@@]5(C)[C@H](CC[C@@H]6[C@@H]5CC[C@]5(C)[C@@H](C7=CC(=O)OC7)CC[C@]65O)C4)O[C@@H]3C)O[C@@H]2C)C[C@H](O)[C@@H]1O | human iPSC cardiomyocytes | plate-normalised |  | concentration not given, hit retest | baseline: vehicle controls, SDs below control | MyBP-C level change | 12.8 SD |
| CO/N=C(\C(=O)N[C@@H]1C(=O)N2C(C(=O)O)=C(COC(C)=O)CS[C@H]12)c1csc(N)n1 | Stenotrophomonas maltophilia | broth microdilution | clinical isolate RKI-No 136/09 |  |  | MIC | 2 µg/mL (≈ 4.39 µM) |
| CC(C)C[C@H](NC(=O)OCc1ccccc1)C(=O)N[C@H](C=O)C[C@@H]1CCCNC1=O | SARS-CoV-2 | viral replication, RT-qPCR viral load | Calu-3 | 72 h |  | EC50 | 1300 ± 500 nM |
| CC1COc2ccccc2N1C(=O)C(Cl)Cl (stereo not shown) | glutathione S-transferase |  | female rhesus monkey liver cytosol | 5 µM, pH 7.4, added: GSH |  | scaled intrinsic clearance | 110 mL/min/g liver |
| COC(=O)Nc1c(N)nc(-c2nn(Cc3ccccc3F)c3ncc(F)cc23)nc1N |  |  | healthy male humans, plasma | oral, 5 mg single dose, fasting, added: magnesium/aluminium hydroxide 10 mL single dose | baseline: with over without antacid | Cmax ratio | 0.543 |
| OC[C@H]1O[C@@H](O[C@@H]2[C@@H](O)[C@H](O[C@@H]3[C@@H](O)[C@H](O[C@@H]4[C@@H](O)[C@H](O[C@@H]5[C@@H](O)[C@H](O[C@H]6[C@H](O)[C@@H](CO)OC(O)[C@@H]6O)O[C@H](CO)[C@H]5O)O[C@H](CO)[C@H]4O)O[C@H](CO)[C@H]3O)O[C@H](CO)[C@H]2O)[C@H](O)[C@@H](O)[C@@H]1O (stereo partly shown) | Bacteroides thetaiotaomicron | binding, ITC |  | pH 7.0, 25 °C, distal domain |  | ΔH | -46.9 kcal/mol |
| CC(C)=CCC/C(C)=C\CCn1cc(C2OC2(P(=O)([O-])[O-])P(=O)([O-])[O-])nn1.[Na+].[Na+].[Na+].[Na+] (stereo not shown) | RPMI-8226 and MM1.S myeloma | protein geranylgeranylation, immunoblot, item: unmodified Rap1a |  | 48 h |  | lowest active concentration | 1 to 2.5 µM |
| OC[C@H]1O[C@@H](O[C@@H]2[C@@H](O)[C@H](O[C@@H]3[C@@H](O)[C@H](O[C@@H]4[C@@H](O)[C@H](O[C@H]5[C@H](O)[C@@H](CO)OC(O)[C@@H]5O)O[C@H](CO)[C@H]4O)O[C@H](CO)[C@H]3O)O[C@H](CO)[C@H]2O)[C@H](O)[C@@H](O)[C@@H]1O (stereo partly shown) | Bacteroides thetaiotaomicron | binding, ITC |  | pH 7.0, 25 °C, distal domain |  | ΔG | -26.1 kcal/mol |
| COc1cc([C@@H]2c3cc4c(cc3[C@@H](O[C@@H]3O[C@@H]5CO[C@@H](C)O[C@H]5[C@H](O)[C@H]3O)[C@H]3COC(=O)[C@H]23)OCO4)cc(OC)c1O | MRC5 normal lung fibroblasts | MTT |  | 48 h |  | TGI | > 100000 nM |

A few entries again:
| Compound | tested on | assay | system | conditions | scale | endpoint | result |
| --- | --- | --- | --- | --- | --- | --- | --- |
| CO/N=C(\C(=O)N[C@@H]1C(=O)N2C(C(=O)O)=C(COC(C)=O)CS[C@H]12)c1csc(N)n1 | Stenotrophomonas maltophilia | broth microdilution | clinical isolate RKI-No 136/09 |  |  | MIC | 2 µg/mL (≈ 4.39 µM) |
